Published values pooled from the literature.
Compare with care: the assays were run in different laboratories. ± marks the error that the study gave.
Ache: Acetylcholinesterase (Ache, Mus musculus, UniProt P21836)
OPRK1: Kappa-type opioid receptor (OPRK1, Homo sapiens, UniProt P41145)
Ricin A chain: Ricin, A chain (Ricinus communis, UniProt P02879)
OPRL1: Nociceptin receptor (OPRL1, Homo sapiens, UniProt P41146)

Amino acid sequences for entries named in this document (tags omitted). A change or cut given only in a name is not applied to a line headed by its entry. Residues count along the entry.
UniProt P21836, whole entry, looked up: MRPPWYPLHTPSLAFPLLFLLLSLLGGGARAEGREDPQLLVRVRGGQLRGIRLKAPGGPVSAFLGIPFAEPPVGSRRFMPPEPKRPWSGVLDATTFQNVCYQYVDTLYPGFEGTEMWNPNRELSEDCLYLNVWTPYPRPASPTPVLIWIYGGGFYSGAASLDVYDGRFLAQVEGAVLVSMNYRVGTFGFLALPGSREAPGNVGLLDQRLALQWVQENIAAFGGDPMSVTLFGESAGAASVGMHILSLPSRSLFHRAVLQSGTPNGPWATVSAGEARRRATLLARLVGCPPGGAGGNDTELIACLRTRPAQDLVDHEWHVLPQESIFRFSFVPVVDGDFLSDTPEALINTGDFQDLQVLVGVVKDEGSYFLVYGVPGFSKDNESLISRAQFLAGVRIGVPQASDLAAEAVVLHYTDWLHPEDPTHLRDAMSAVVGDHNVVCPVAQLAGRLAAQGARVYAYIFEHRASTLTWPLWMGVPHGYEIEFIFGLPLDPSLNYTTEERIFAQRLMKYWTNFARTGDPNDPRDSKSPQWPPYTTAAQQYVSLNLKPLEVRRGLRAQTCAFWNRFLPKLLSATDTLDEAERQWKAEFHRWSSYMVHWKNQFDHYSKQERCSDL
UniProt P41145, whole entry: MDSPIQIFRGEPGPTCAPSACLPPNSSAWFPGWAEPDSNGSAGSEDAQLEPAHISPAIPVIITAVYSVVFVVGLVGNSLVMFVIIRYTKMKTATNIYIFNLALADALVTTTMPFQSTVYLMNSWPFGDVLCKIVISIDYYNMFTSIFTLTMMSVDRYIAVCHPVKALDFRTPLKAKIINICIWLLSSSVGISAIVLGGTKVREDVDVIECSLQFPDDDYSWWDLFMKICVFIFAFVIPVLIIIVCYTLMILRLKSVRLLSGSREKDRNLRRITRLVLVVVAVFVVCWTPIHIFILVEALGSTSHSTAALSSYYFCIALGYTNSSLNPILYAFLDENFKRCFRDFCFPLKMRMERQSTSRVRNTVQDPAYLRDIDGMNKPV
UniProt P41146, whole entry: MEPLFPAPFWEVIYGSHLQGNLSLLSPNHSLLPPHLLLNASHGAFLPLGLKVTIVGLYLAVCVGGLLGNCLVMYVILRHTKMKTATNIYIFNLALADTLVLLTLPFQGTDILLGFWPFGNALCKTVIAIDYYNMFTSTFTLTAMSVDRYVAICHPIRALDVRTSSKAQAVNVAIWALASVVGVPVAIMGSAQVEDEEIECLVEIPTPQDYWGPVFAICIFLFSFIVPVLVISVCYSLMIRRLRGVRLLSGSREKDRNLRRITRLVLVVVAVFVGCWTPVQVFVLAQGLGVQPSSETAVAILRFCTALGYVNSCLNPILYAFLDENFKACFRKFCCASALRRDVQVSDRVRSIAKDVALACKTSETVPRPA
UniProt P12710, whole entry: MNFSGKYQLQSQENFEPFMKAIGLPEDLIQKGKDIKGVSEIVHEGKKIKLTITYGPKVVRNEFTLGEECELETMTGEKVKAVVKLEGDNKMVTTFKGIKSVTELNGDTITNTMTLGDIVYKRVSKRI
UniProt P02768, 25-609 limits assumed: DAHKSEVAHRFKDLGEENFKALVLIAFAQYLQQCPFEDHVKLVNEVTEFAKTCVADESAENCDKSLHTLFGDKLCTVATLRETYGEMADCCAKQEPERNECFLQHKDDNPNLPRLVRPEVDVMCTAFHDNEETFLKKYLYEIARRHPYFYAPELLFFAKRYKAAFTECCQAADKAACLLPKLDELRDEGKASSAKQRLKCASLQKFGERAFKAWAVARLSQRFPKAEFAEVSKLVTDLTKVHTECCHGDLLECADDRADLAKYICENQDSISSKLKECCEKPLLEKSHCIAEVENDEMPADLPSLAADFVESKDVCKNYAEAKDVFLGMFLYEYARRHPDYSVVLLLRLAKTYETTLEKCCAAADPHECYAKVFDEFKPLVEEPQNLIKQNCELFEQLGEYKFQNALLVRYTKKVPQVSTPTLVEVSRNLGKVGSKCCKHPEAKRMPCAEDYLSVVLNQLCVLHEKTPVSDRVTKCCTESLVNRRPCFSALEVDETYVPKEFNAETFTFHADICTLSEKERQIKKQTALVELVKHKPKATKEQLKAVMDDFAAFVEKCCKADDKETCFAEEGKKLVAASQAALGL
UniProt O42275, whole entry, looked up: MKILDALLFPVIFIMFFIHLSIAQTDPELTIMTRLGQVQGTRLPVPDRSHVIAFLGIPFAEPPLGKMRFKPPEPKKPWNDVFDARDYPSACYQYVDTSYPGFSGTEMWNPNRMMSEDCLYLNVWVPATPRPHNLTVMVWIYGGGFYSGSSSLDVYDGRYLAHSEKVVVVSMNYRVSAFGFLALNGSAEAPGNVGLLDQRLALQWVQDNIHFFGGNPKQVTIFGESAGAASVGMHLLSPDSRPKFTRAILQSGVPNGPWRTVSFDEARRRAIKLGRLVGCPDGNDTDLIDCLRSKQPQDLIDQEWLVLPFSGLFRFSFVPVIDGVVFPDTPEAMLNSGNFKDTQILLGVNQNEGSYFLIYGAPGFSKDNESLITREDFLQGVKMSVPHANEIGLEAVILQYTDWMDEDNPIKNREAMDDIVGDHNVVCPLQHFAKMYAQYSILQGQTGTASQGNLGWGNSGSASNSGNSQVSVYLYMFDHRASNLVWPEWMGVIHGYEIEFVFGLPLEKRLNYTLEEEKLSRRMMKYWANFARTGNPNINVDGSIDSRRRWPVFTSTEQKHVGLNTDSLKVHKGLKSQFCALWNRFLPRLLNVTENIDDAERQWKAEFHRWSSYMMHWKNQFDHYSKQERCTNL
UniProt Q9GZZ6, 25-450 limits assumed: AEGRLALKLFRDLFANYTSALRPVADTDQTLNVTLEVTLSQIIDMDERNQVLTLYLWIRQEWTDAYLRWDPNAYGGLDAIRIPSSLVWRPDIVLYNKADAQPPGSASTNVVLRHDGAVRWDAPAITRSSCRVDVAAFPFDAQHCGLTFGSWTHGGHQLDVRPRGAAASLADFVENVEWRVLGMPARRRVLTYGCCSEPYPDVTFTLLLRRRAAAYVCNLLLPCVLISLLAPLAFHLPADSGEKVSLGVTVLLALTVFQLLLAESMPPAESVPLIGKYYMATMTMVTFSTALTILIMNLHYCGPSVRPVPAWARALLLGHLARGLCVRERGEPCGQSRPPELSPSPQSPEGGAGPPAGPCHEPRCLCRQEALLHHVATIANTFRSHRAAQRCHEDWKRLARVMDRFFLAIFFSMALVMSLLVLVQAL
UniProt Q9UGM1, 26-479 limits assumed: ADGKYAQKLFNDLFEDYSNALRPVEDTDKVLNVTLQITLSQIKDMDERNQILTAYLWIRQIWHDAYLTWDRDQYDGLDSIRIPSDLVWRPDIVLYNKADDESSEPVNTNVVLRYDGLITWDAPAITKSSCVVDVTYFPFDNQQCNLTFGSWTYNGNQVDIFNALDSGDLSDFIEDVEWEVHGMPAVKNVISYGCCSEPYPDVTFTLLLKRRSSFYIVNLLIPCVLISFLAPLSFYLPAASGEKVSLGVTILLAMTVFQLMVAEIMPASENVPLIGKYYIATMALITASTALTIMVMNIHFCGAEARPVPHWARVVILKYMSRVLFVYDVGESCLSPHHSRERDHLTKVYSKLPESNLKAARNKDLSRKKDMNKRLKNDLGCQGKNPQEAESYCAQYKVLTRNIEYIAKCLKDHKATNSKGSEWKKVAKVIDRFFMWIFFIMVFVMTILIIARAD
UniProt P49582, 23-502 limits assumed: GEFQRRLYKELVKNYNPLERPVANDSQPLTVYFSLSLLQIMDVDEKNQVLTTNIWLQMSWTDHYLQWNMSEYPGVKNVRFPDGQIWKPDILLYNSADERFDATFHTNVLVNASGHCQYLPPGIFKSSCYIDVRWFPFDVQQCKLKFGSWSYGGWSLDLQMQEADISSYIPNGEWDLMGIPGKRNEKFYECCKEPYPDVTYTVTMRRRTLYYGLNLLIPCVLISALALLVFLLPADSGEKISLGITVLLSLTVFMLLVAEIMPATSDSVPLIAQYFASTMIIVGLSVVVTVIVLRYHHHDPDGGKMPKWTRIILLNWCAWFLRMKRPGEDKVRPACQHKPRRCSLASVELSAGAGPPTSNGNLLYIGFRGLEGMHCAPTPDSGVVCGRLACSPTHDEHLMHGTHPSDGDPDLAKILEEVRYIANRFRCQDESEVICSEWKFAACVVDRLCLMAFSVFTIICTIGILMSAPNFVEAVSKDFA
UniProt P39045, 50-515 limits assumed: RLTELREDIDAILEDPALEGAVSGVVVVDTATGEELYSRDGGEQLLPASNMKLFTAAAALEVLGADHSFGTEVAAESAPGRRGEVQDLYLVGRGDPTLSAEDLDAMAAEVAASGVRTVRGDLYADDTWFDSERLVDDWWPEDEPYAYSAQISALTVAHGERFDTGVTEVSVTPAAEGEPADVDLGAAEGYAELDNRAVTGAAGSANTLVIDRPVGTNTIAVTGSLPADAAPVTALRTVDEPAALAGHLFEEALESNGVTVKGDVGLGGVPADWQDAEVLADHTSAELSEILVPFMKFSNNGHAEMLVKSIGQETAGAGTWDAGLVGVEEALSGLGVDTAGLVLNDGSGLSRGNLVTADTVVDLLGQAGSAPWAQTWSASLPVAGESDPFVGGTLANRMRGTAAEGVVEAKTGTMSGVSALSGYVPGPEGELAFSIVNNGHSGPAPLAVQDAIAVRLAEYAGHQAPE

Molecule	tested on	test	system	conditions	how to read	measurement	result
CCOP(=S)(OCC)Oc1nc(Cl)c(Cl)cc1Cl	Ache		ES1-/- mice	transdermal, 100 mg/kg, 24 h, toxicant challenge		inhibition	53%
NC12CC3CC(CC(C3)C1)C2	Influenza A virus	viral replication, plaque size reduction	MDCK, A/Swine/Indiana/27-1102/2010 (H3N2)			EC50	68.3 ± 3.1 µM
O=C1Cc2ccccc2N1C1CCN([C@H]2CC[C@@H]3CCCc4cccc2c43)CC1 (relative stereo)	OPRK1	radioligand displacement		added: tritiated U-69593		Ki	0.516 ± 0.0579 µM
CO[C@]12CC[C@@]3(C[C@@H]1[C@](C)(O)c1ccc(C)s1)[C@H]1Cc4ccc(O)c5c4[C@@]3(CCN1CC1CC1)[C@H]2O5	OPRK1	G-protein activation, agonist		10 µM	reference: U-69593	stimulation	81 ± 1%
Cc1ccc2c(c1)-c1c(ssc1=S)C(C)(C)N2C(=O)CC(C)C	Fatty acid-binding protein, liver (Mus musculus, UniProt P12710)	binding, fluorescence		added: NBD-stearic acid 500 nM		displacement	~20%
CCC(=O)c1cnc2c(=O)[nH]c(N)nc2n1	Ricin A chain	differential scanning fluorimetry		500 µM, pH 7.5, 2 µM protein		ΔTm	2 °C
COC(=O)[C@H]1[C@@H](OC(=O)c2ccccc2)C[C@@H]2CC[C@H]1N2C	calf ventricular sodium channel			added: batrachotoxin	reference: KD (+) over KD (-)	stereoselectivity ratio	~90
CC(=O)c1cnc2c(=O)[nH]c(N)nc2n1	Ricin A chain	differential scanning fluorimetry		500 µM, pH 7.5, 2 µM protein		ΔTm	1.3 °C
CNC(=O)Oc1cccc2c1OC(C)(C)C2	Ache		ES1-/- mice, plasma	subcutaneous, 1.0 mg/kg, 0.5 h, toxicant challenge		inhibition	52.4 ± 4.1%
CCCSc1nc(N[C@@H]2C[C@H]2c2ccc(F)c(F)c2)c2nnn([C@@H]3C[C@H](OCCO)[C@@H](O)[C@H]3O)c2n1			STEMI patients, plasma	180 mg loading dose, 1 h, added: fentanyl		plasma concentration	185 ± 362 ng/mL
N-carbamoyl-aspartate	Dihydroorotase (Bacillus anthracis, UniProt Q81WF0, N93A)	substrate		N93A mutant		kcat	1.4 ± 0.1 s⁻¹
[3H]diisopropyl fluorophosphate	Albumin (ALB, Homo sapiens, UniProt P02768)	covalent label		19 µM, 1 h, 37 °C		labelled albumin	~4%
Cc1cc(=O)oc2cc(NC(=O)CNC(=O)CNC(=O)[C@H](CCCNC(=N)N)NC(=O)[C@H](CC(C)C)NC(=O)[C@H](CCCNC(=N)N)NC(=O)OCc3ccccc3)ccc12	Replicase polyprotein 1a, papain-like protease (Severe acute respiratory syndrome-related coronavirus, UniProt P0C6U8)	protease activity, substrate				kcat	62.4 s⁻¹
CNC(=O)ON=CC(C)(C)SC	Acetylcholinesterase (Cavia porcellus, UniProt D3YE96)	Ellman				IC95	509 µM
CN(C)[C@]1(c2ccccc2)CC[C@]2(CC1)OCCc1c3cc(F)ccc3[nH]c12	OPRL1	cAMP, agonist		human receptor		Emax	95.9 ± 0.9%
CCOP(=O)(OCC)Oc1ccc([N+](=O)[O-])cc1	ache (Electrophorus electricus, UniProt O42275)	irreversible inhibitor, Ellman		electric eel enzyme		bimolecular inhibition rate constant	5000 M⁻¹ s⁻¹
C[C@@H]1NC(=O)[C@H](CCCNC(=N)N)NC(=O)[C@H](CCCNC(=N)N)NC(=O)[C@H](Cc2c[nH]cn2)NC(=O)[C@H](CO)NC(=O)[C@H](CCCCN)NC(=O)[C@@H]2CSSC[C@H](NC(=O)CN)C(=O)N[C@@H](CSSC[C@@H](C(N)=O)NC(=O)[C@H](CCCNC(=N)N)NC1=O)C(=O)N[C@@H](CO)C(=O)N[C@@H](Cc1c[nH]cn1)C(=O)N1CCC[C@H]1C(=O)N[C@@H](C)C(=O)N2	Neuronal acetylcholine receptor; alpha9/alpha10 (Homo sapiens, UniProt Q9GZZ6+Q9UGM1)	ion current, antagonist	Xenopus oocytes	10 µM, 5 min, added: acetylcholine	reference: control	remaining response	0.7 ± 0.4%
Cc1cc2c(-c3ccco3)cnc(N[C@H]3CCN(C)C[C@@H]3C(=O)NC3CCCCC3)c2[nH]c1=O	OPRK1	binding, radioligand binding		10 µM		inhibition	34.9%
CCC1C(=O)N(C2CCN(C3CCCc4ccccc43)CC2)c2ccccc21 (stereo not drawn)	OPRL1	radioligand displacement		added: [3H]N/OFQ		Ki	0.00863 ± 0.00096 µM
O=S1(=O)c2ccc(F)cc2-c2ccc(N3CCN4CCC3CC4)cc21 [fluorine-18 labelled]	Chrna7 (Mus musculus, UniProt P49582)		mouse, colliculus	dose not given, 90 min, unit not given	reference: cerebellum	binding potential BPND	2 ± 0.5
CC1(C)S[C@@H]2[C@H](I)C(=O)N2[C@H]1C(=O)O	D-alanyl-D-alanine carboxypeptidase (Actinomadura sp. R39, UniProt P39045)	covalent inhibitor, reporter substrate hydrolysis		pH 7.2, 30 °C, 100 mM D-alanine, added: thioester substrate 100 µM		k2/K	52300 ± 6400 M⁻¹ s⁻¹

Some of these lines once more:
Molecule	tested on	test	system	conditions	how to read	measurement	result
Cc1cc(=O)oc2cc(NC(=O)CNC(=O)CNC(=O)[C@H](CCCNC(=N)N)NC(=O)[C@H](CC(C)C)NC(=O)[C@H](CCCNC(=N)N)NC(=O)OCc3ccccc3)ccc12	Replicase polyprotein 1a, papain-like protease (Severe acute respiratory syndrome-related coronavirus, UniProt P0C6U8)	protease activity, substrate				kcat	62.4 s⁻¹
Cc1ccc2c(c1)-c1c(ssc1=S)C(C)(C)N2C(=O)CC(C)C	Fatty acid-binding protein, liver (Mus musculus, UniProt P12710)	binding, fluorescence		added: NBD-stearic acid 500 nM		displacement	~20%
CC(=O)c1cnc2c(=O)[nH]c(N)nc2n1	Ricin A chain	differential scanning fluorimetry		500 µM, pH 7.5, 2 µM protein		ΔTm	1.3 °C
